Literature values that unrelated publications cite.
Numbers after ± are the reported error.
ribH: 6,7-dimethyl-8-ribityllumazine synthase (ribH, Mycobacterium tuberculosis, UniProt P9WHE9)
Sequence of UniProt P9WHE9 (whole entry, looked up): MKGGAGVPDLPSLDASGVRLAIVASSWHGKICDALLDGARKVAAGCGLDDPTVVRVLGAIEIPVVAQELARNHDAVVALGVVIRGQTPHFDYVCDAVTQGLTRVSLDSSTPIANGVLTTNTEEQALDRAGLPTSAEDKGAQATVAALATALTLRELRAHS
EGFR L858R/T790M: Epidermal growth factor receptor (EGFR, Homo sapiens, UniProt P00533, L858R/T790M)
lecA: PA-I galactophilic lectin (lecA, Pseudomonas aeruginosa, UniProt Q05097)
Sequence of UniProt Q05097 (whole entry, looked up): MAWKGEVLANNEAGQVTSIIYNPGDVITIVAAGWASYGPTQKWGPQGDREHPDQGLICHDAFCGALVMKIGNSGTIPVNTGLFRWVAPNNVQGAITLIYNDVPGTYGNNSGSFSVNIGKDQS
MAOB: Amine oxidase [flavin-containing] B (MAOB, Homo sapiens, UniProt P27338)
lecB: Fucose-binding lectin PA-IIL (lecB, Pseudomonas aeruginosa, UniProt Q9HYN5)
Sequence of UniProt P41143 (whole entry, looked up): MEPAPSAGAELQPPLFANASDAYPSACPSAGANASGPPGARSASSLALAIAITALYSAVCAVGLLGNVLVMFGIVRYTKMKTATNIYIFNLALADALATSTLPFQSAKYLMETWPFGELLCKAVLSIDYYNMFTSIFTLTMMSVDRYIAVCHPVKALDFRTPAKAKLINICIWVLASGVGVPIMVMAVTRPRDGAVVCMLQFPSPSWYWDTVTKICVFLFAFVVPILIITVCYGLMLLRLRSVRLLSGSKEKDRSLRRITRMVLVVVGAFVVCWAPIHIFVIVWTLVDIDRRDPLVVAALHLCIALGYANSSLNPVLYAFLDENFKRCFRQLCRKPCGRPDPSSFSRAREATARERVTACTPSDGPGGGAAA
Sequence of UniProt P01024 (whole entry, unmodified, looked up): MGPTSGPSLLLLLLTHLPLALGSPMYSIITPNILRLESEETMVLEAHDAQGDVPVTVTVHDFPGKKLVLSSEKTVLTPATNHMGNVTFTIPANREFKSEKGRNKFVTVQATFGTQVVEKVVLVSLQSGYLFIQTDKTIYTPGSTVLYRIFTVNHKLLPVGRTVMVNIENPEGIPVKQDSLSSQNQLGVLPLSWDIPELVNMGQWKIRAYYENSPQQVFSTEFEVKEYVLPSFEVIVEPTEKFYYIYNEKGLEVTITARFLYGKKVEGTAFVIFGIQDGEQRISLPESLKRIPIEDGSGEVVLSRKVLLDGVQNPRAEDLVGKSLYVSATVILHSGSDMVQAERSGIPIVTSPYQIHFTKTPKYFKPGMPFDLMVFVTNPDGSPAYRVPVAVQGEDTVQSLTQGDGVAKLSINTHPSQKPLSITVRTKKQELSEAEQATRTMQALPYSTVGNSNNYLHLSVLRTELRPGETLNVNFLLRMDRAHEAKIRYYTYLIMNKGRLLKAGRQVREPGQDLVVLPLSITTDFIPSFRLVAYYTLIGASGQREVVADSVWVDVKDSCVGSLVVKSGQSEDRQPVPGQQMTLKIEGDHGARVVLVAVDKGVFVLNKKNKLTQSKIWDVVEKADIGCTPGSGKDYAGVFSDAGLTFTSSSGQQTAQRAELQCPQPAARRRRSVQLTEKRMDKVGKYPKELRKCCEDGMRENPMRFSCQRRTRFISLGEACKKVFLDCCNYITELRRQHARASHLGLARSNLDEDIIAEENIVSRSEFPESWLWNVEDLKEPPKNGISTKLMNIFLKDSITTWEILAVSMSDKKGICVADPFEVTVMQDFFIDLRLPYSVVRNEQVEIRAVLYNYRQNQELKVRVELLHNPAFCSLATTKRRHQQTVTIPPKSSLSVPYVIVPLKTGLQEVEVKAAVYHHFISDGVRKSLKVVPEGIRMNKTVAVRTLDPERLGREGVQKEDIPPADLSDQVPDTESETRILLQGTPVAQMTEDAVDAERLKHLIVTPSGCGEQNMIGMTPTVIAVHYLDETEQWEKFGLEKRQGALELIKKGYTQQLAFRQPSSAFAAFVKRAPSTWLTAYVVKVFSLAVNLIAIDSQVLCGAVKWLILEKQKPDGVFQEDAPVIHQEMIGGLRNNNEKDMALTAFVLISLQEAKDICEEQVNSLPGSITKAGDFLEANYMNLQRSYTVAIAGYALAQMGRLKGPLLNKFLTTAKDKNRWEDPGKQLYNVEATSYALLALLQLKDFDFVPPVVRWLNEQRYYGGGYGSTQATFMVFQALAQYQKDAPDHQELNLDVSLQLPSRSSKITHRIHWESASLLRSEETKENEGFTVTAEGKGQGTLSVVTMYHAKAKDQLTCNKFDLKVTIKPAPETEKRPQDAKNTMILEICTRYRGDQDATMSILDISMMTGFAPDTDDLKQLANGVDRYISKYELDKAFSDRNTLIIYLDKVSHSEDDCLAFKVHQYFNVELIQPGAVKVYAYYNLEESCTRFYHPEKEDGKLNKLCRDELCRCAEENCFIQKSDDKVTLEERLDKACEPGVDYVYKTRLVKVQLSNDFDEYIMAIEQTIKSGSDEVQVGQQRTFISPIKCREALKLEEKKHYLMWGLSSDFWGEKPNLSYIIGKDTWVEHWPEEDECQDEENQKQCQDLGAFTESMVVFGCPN
Sequence of UniProt Q5U3Y7 (whole entry, looked up): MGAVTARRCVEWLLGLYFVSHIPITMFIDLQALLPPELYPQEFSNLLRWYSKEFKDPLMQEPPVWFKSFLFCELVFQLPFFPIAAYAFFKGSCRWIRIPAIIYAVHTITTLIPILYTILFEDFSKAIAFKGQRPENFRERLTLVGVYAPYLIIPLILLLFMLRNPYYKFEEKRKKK
Sequence of UniProt Q9ULC6 (whole entry, looked up): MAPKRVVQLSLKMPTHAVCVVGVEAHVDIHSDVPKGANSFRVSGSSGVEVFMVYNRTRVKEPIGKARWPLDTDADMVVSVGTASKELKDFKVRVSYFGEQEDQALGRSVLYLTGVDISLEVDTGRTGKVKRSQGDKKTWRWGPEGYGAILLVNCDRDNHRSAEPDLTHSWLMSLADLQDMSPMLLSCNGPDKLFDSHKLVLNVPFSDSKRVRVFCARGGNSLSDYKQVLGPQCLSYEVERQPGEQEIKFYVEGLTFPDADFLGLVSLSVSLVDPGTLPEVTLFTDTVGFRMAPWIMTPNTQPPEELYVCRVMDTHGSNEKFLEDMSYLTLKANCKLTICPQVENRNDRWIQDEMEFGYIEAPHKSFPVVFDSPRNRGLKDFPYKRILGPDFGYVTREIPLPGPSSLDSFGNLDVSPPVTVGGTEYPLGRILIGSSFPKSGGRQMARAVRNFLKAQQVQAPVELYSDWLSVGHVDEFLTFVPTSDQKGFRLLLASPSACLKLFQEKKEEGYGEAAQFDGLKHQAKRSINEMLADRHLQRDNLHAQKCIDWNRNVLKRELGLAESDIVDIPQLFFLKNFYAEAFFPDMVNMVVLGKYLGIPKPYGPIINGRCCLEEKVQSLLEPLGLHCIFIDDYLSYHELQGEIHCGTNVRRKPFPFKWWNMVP
Sequence of UniProt P35499 (whole entry, looked up): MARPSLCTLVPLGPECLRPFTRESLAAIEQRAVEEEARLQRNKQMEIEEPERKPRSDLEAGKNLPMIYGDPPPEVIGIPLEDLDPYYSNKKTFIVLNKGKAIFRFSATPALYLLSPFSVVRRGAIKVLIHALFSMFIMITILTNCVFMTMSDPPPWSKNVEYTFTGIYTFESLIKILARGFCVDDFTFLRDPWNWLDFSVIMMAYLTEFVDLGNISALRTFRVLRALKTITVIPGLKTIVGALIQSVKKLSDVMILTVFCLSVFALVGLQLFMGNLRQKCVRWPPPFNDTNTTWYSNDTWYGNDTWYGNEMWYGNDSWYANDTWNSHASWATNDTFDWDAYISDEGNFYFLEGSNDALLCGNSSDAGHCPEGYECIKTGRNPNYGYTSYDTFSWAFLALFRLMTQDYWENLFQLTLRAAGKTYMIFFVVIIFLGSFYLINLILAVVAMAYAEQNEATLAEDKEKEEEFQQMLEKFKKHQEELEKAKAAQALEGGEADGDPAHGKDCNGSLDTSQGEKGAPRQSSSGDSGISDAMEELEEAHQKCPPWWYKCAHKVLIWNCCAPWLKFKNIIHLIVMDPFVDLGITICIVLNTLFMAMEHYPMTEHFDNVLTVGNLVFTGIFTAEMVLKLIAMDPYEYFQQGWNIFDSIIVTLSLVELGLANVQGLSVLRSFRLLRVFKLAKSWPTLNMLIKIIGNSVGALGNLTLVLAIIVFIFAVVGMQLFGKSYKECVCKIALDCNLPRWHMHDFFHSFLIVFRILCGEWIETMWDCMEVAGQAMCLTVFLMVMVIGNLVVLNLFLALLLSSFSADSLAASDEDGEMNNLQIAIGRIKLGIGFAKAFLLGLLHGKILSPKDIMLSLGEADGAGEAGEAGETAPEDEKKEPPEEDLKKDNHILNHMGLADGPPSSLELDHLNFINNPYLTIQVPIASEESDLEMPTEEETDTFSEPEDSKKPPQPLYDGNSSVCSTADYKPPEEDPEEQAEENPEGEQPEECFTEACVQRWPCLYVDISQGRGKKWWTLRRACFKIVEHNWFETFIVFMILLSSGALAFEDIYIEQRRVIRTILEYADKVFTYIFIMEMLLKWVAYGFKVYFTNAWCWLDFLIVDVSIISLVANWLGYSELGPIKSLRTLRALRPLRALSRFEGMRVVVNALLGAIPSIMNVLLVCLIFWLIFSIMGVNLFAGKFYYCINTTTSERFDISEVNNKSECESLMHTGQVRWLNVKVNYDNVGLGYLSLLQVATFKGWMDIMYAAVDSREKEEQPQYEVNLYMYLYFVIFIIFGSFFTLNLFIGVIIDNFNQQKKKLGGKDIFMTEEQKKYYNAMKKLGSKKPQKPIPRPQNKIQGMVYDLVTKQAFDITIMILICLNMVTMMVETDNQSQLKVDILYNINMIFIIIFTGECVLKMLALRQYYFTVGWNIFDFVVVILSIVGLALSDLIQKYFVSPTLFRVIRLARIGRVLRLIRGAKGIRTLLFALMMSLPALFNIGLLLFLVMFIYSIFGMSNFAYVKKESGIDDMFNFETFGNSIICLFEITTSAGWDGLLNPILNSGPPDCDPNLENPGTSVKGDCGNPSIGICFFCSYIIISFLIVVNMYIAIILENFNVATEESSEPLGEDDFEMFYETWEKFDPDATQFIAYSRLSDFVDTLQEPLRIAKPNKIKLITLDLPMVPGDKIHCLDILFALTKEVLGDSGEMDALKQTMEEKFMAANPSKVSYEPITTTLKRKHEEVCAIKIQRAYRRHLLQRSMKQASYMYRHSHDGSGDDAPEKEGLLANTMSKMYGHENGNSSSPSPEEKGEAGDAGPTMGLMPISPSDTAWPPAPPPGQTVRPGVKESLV

| Structure (SMILES) | target or system | test | test system | conditions | how to read | endpoint | result |
| --- | --- | --- | --- | --- | --- | --- | --- |
| CCOC(=O)C(=O)Nc1c(NC[C@H](O)[C@H](O)[C@H](O)CO)[nH]c(=O)[nH]c1=O | ribH | enzyme kinetics |  | pH 7.0, together with: substrate 2 fixed, 1 varied | lower = tighter substrate binding | Ks | 53 ± 11 µM |
| C=CC(=O)N1CCC[C@@H](n2nc(-c3cn(C)c4ccccc34)c3c(N)ncnc32)C1 | EGFR L858R/T790M |  |  |  |  | kinact/Ki | 0.36 ± 0.09 µM⁻¹ s⁻¹ |
| CN1CCN(c2cc(-c3ccccc3CO)c(N(C)C(=O)C(C)(C)c3cc(C(F)(F)F)cc(C(F)(F)F)c3)cn2)CC1 |  |  | healthy volunteers, plasma | oral, dose not given, netupitant-palonosetron, fed |  | half-life | 61.9 h |
| OCCn1cc(CO[C@@H]2O[C@H](CO)[C@H](O)[C@H](O)[C@H]2O)nn1 | lecA | ITC |  |  |  | ΔG | -6.3 kcal/mol |
| CN1C(=O)[C@@H](Cc2ccc(O)cc2)NC(=O)CNC(=O)[C@H](Cc2ccc3ccccc3c2)NC(=O)[C@H](CCCNC(=N)N)NC(=O)[C@H]1CCCNC(=O)c1ccc(CNC(=O)CN2CCN(CC(=O)O)CCN(CC(=O)O)CCN(CC(=O)O)CC2)cc1 [gallium-68 labelled] |  | PET-based dosimetry | human patients, gall bladder wall |  |  | absorbed dose coefficient | 0.0146 mGy/MBq |
| C[C@H]1CN(C(=O)c2nc(Nc3cc(C4CC4)[nH]n3)c3cc(Cl)ccc3n2)CCN1 | PAK4 (Homo sapiens, UniProt O96013) |  |  |  | reference: PAK1 over PAK4 | selectivity ratio | 346 fold |
| CCCCCCCCO[C@@H]1O[C@H](CO)[C@H](O)[C@H](O[C@H]2O[C@H](CO)[C@H](O)[C@H](O)[C@H]2O)[C@H]1O[C@@H]1O[C@@H](C)[C@@H](O)[C@@H](O)[C@@H]1O | ABO (Homo sapiens, UniProt P16442, G235S/G268A/L266M/R176G) | mass spectrometry |  | concentration not given, together with: UDP |  | binding | no binding |
| CC(=O)N[C@@H](Cc1ccccc1)C(=O)N[C@@H](CC(=O)O)C(=O)N[C@@H](CC(N)=O)C(=O)N1CCC[C@H]1C(=O)N[C@H](C(=O)N[C@@H](C)C(=O)O)C(C)C | LDL receptor, position 807 mutant |  |  |  | reference: native LDL receptor | internalization index | 0.2 |
| CCSc1nc(-c2cccc(OCc3ccccc3)c2)cc(C(F)(F)F)n1 | GLP1R (Homo sapiens, UniProt P43220) |  | GLP1R overexpressing cells | concentration not given |  | activity class | inactive |
| CC[C@H](C)[C@H](NC(C)=O)C(=O)N[C@H]1CSSC[C@@H](C(=O)N[C@H](C(N)=O)[C@@H](C)O)NC(=O)[C@H](CCCNC(=N)N)NC(=O)[C@H](Cc2c[nH]cn2)NC(=O)[C@H](C)NC(=O)CNC(=O)[C@H](Cc2c[nH]c3ccccc23)NC(=O)[C@H](CC(=O)O)NC(=O)[C@H](CCC(N)=O)NC(=O)[C@H](Cc2ccc3ccccc3c2)NC(=O)[C@H](C(C)C)NC1=O | Complement C3 (Homo sapiens, UniProt P01024) | binding, ITC |  |  |  | ΔG | -9.5 kcal/mol |
| C=CC(=O)N1CCC[C@@H](n2nc(-c3cccc4ccccc34)c3c(N)ncnc32)C1 | EGFR L858R/T790M |  |  |  |  | kinact | 0.31 ± 0.04 min⁻¹ |
| CN1CCN(CC(=O)N2N=C3/C(=C/c4ccccc4)CCCC3C2c2ccccc2)CC1 (mixture of isomers) | ALOX15 (Homo sapiens, UniProt P16050) | enzyme activity, activator |  | together with: arachidonic acid |  | maximal activation | 85% |
| Nc1c2ncn3c2nc[n+]1[C@@H]1O[C@H](COP(=O)(O)OP(=O)([O-])OC[C@H]2O[C@@H]3[C@H](OP(=O)(O)O)[C@@H]2O)[C@@H](O)[C@H]1O | cADPR receptor, sea urchin |  | sea urchin egg homogenate | concentration not given |  | activity | inactive |
| CC(=O)c1ccc(OCc2cccc(Br)c2)cc1O | MAOB |  |  |  | reference: IC50 MAO-A over IC50 MAO-B | selectivity ratio | 3950 |
| CO[C@H]1O[C@H](CO)[C@@H](O)[C@H](O)[C@@H]1O | lecB | binding, ITC |  |  |  | −TΔS | -1.4 kcal/mol |
| CCCCN(CCc1ccccc1)CCc1cccc(O)c1 | OPRD1 (Homo sapiens, UniProt P41143) |  |  |  | reference: KOR over OPRD1 | selectivity ratio | > 200 fold |
| CN(C)c1ccc(/N=N/c2ccc(S(=O)(=O)O)cc2)cc1 | bovine serum albumin | equilibrium dialysis |  | concentration not given |  | number of binding sites | 16 |
| CCCCC[C@H](O)/C=C/C=C\C=C\C=C\[C@@H](O)[C@@H](O)CCCC(=O)O | FPR2 (Homo sapiens, UniProt P25090) | monocyte adherence, agonist |  |  |  | effective concentration | < 1 nM |
| OC[C@H]1O[C@@H](OCc2cn([C@H]3[C@H](O)[C@@H](O)[C@H](c4cn([C@H]5[C@H](O)[C@@H](O)[C@H](n6cc([C@@H]7O[C@H](CO)[C@@H](n8cc(CO[C@@H]9O[C@H](CO)[C@H](O)[C@H](O)[C@H]9O)nn8)[C@H](O)[C@H]7O)nn6)O[C@@H]5CO)nn4)O[C@@H]3CO)nn2)[C@H](O)[C@@H](O)[C@H]1O | lecA | ITC |  |  |  | –TΔS | 1.3 kcal/mol |
| C=CCC(=N)NCCC[C@H](N)C(=O)O | nitric oxide synthase |  |  |  | reference: Ki eNOS over Ki nNOS | selectivity ratio | 120 |
| CO[C@H]1O[C@H](CNS(=O)(=O)c2c(C)cc(C)cc2C)[C@@H](O)[C@H](O)[C@@H]1O | lecB | binding, ITC |  |  |  | ΔH | -7.9 kcal/mol |

| Structure (SMILES) | target or system | test | test system | conditions | how to read | endpoint | result |
| --- | --- | --- | --- | --- | --- | --- | --- |
| COCCOCCOCCOCCC(=O)NCc1cc(CNC(=O)CCOCCOCCOCCOC)cc(-c2cc3cc4nc(c(OC)c5[nH]c(cc6nc(cc2[nH]3)CC6(C)C)cc5-c2cc(CNC(=O)CCOCCOCCOCCOC)cc(CNC(=O)CCOCCOCCOCCOC)c2)CC4(C)C)c1 |  |  | DMF | room temperature |  | singlet excited-state lifetime | 3.2 ns |
| CO[C@@H]1[C@H](O)[C@@H](COP(=O)(O)OP(=O)([O-])OP(=O)(O)OP(=O)(O)OC[C@H]2O[C@@H](n3cnc4c(=O)[nH]c(N)nc43)[C@H](O)[C@@H]2O)O[C@H]1n1c[n+](C)c2c(O)nc(N)nc21 | Eukaryotic translation initiation factor 4E, residues 28-217 (Eif4e, Mus musculus, UniProt P63073) | binding, fluorescence quenching titration |  | pH 7.2 |  | association constant | 99.8 µM⁻¹ |
| CC(=O)c1cc(OCc2ccc(Br)cc2)ccc1O | MAOB |  |  |  | reference: IC50 MAO-A over IC50 MAO-B | selectivity ratio | 17 |
| COc1cc2c(cc1OC)CN(CCCCn1ccc3cc(OCC[18F])ccc31)C2 | Tmem97 (Rattus norvegicus, UniProt Q5U3Y7) | binding |  |  | reference: Ki sigma1 over Ki sigma2 | selectivity ratio | 57 |
| CCOC(=O)C(C)NC(=O)CN1C(=O)N/C(=C\c2ccc(C)cc2)C1=O (stereo not drawn) | α-glucosidase | enzyme activity |  | 200 µM |  | inhibition | 44.6 ± 0.99% |
| C=CC(=O)N1CCC[C@@H](n2nc(-c3ccc4ccccc4c3)c3c(N)ncnc32)C1 | EGFR (Homo sapiens, UniProt P00533) |  |  |  |  | kinact | 0.19 ± 0.12 min⁻¹ |
| CC(C)C(C)Nc1ccnc2cc(Cl)ccc12 (stereo not drawn) | Nuclear receptor subfamily 4 group A member 2, ligand binding domain (Homo sapiens, UniProt P43354) | agonist |  | concentration not given | reference: DMSO | maximum activation | 1.47 fold |
| Nc1c(SC[C@H](O)[C@H](O)[C@H](O)CO)[nH]c(=O)[nH]c1=O | 6,7-dimethyl-8-ribityllumazine synthase (rib4, Schizosaccharomyces pombe, UniProt Q9UUB1) | enzyme kinetics |  | pH 7.0 |  | kcat | 1.7 min⁻¹ |
| CN[C@H](CC(C)C)C(=O)N[C@H]1C(=O)N[C@@H](CC(N)=O)C(=O)N[C@H]2C(=N)N[C@H]3C(=O)N[C@H](C(=O)N[C@H](C(=O)O)c4cc(O)cc(O)c4-c4cc3ccc4O)[C@H](O)c3ccc(c(Cl)c3)Oc3cc2cc(c3O)Oc2ccc(cc2Cl)[C@H]1O | D-Ala-D-Lac |  |  | concentration not given | reference: vancomycin aglycon | binding affinity increase | 600 fold |
| O=c1[nH]c(SC[C@H](O)[C@H](O)[C@H](O)CO)c([N+](=O)[O-])c(=O)[nH]1 | ribH | enzyme kinetics |  | pH 7.0, together with: substrate 2 fixed, 1 varied | lower = tighter substrate binding | Ks | 36 ± 3 µM |
| C[C@H](N)C(=O)N[C@@H](CCCNC(=N)N)C(=O)N[C@H](C(=O)N[C@@H](CCCC[N+](C)(C)C)C(=O)N[C@@H](CCC(N)=O)C(=O)N[C@H](C(=O)N[C@@H](C)C(=O)N[C@@H](CCCNC(=N)N)C(=O)N[C@@H](CCCCN)C(=O)N[C@@H](CO)C(=O)O)[C@@H](C)O)[C@@H](C)O | Eaf3 N-terminal domain, yeast | bead pull-down |  | concentration not given |  | binding | binds |
| O=c1ccn(C2OC(COP(=O)(O)OP(=O)(O)OP(=O)(O)O)C(O)C2O)c(=O)[nH]1 (stereo not drawn) | UAP1 (Homo sapiens, UniProt Q16222) | substrate |  |  |  | Km | 53 µM |
| CCOC(=O)C(CC)NC(=O)CN1C(=O)S/C(=C\c2ccc([N+](=O)[O-])cc2)C1=O (stereo not drawn) | α-glucosidase | enzyme activity |  | 100 µM |  | inhibition | 0% |
| N=C(CF)NCCC[C@H](NC(=O)c1ccc(-c2ccccc2)cc1)c1nc2ccccc2[nH]1 | PADI1 (Homo sapiens, UniProt Q9ULC6) | inhibitor |  |  |  | kinact/KI | 900 M⁻¹ min⁻¹ |
| COc1ccc(-n2nc3c4cc(Cl)ccc4[nH]cc-3c2=O)cc1 | GABAA receptor α2β3γ2 | ion current, modulator |  | α2β3γ2, together with: GABA EC3-5 |  | maximum modulation | ~1000% |
| CC(=O)O[C@H]1C2=C(C(=O)C(O)=C(C(C)C)C2=O)[C@@]2(C)CCCC(C)(C)[C@@H]2[C@@H]1OC(=O)c1ccc([N+](=O)[O-])cc1 | MOLT-3 |  |  |  |  | GI50 | ≤ 5 µM |
| Cc1cccc(C)c1NC(=O)C1CCN(Cc2ccccc2)C1 (stereo not drawn) | SCN4A (Homo sapiens, UniProt P35499) | sodium current block, in vitro |  | tonic block, 0.1 Hz |  | Hill coefficient | 0.9 ± 0.1 |
| Cc1ccc(S(=O)(=O)N(CC(=O)N(Cc2ccccc2)c2ccc(C(=O)O)c(O)c2)C(=O)OC(C)(C)C)cc1 | Signal transducer and activator of transcription 5B, SH2 domain (STAT5B, Homo sapiens, UniProt P51692) | fluorescence polarization |  |  | reference: STAT5B over STAT3 | selectivity ratio | 2 to 3 fold |
| CC(=O)O[C@H]1C2=C(C(=O)C(OC(=O)c3ccccc3)=C(C(C)C)C2=O)[C@@]2(C)CCCC(C)(C)[C@@H]2[C@@H]1OC(=O)c1ccccc1 | MOLT-3 |  |  |  |  | GI50 | 5 to 10 µM |
| CC(C)C(=O)Nc1c(NC[C@H](O)[C@H](O)[C@H](O)CO)[nH]c(=O)[nH]c1=O | ribH |  |  | pH 7.0 |  | Ki (uncompetitive, ESI) | 77 ± 28 µM |
| Cc1cc2c(c(=O)o1)C=C1CCC(C(C)CNCc3ccc(O)cc3)CC1O2 (stereo not drawn) | ABCA1 |  |  | concentration not given |  | ABCA1 expression | increased |

A few entries again:
| Structure (SMILES) | target or system | test | test system | conditions | how to read | endpoint | result |
| --- | --- | --- | --- | --- | --- | --- | --- |
| C=CC(=O)N1CCC[C@@H](n2nc(-c3cn(C)c4ccccc34)c3c(N)ncnc32)C1 | EGFR L858R/T790M |  |  |  |  | kinact/Ki | 0.36 ± 0.09 µM⁻¹ s⁻¹ |
| CC(C)C(=O)Nc1c(NC[C@H](O)[C@H](O)[C@H](O)CO)[nH]c(=O)[nH]c1=O | ribH |  |  | pH 7.0 |  | Ki (uncompetitive, ESI) | 77 ± 28 µM |
| CC(=O)N[C@@H](Cc1ccccc1)C(=O)N[C@@H](CC(=O)O)C(=O)N[C@@H](CC(N)=O)C(=O)N1CCC[C@H]1C(=O)N[C@H](C(=O)N[C@@H](C)C(=O)O)C(C)C | LDL receptor, position 807 mutant |  |  |  | reference: native LDL receptor | internalization index | 0.2 |
| C=CC(=O)N1CCC[C@@H](n2nc(-c3cccc4ccccc34)c3c(N)ncnc32)C1 | EGFR L858R/T790M |  |  |  |  | kinact | 0.31 ± 0.04 min⁻¹ |
| CCOC(=O)C(C)NC(=O)CN1C(=O)N/C(=C\c2ccc(C)cc2)C1=O (stereo not drawn) | α-glucosidase | enzyme activity |  | 200 µM |  | inhibition | 44.6 ± 0.99% |
| CN1CCN(CC(=O)N2N=C3/C(=C/c4ccccc4)CCCC3C2c2ccccc2)CC1 (mixture of isomers) | ALOX15 (Homo sapiens, UniProt P16050) | enzyme activity, activator |  | together with: arachidonic acid |  | maximal activation | 85% |
